Measurements pooled from the literature.
A part holds a random share of what one study measured. Substitutions count along the parent as printed.

Set 1
Target: CCNE1, cyclin fold, Cln2 fusion (human)
Technique: yeast growth competition, sequencing
Medium: yeast
Setting: weak parent motif
Reference: not given
Direction: higher = stronger binding
Starting sequence: DNAH7 docking peptide (human); HELFQRLDFDNDG
Variant | normalised enrichment score
HELFQRLDFDNAG [D12A] | -0.0542
HELFQRLDFDNDA [G13A] | 0.184
HELFQRLDFDADG [N11A] | 0.0149
HELAQRLDFDNDG [F4A] | -0.143
HELFQRLDADNDG [F9A] | 0.104
AELFQRLDFDNDG [H1A] | 0.37
HELFQRADFDNDG [L7A] | -0.265

Set 2
Target: RNA binding protein fox-1 homolog 2, RRM domain, GST-SBP tag (RBFOX2, Homo sapiens, UniProt O43251-10, residues 100-194)
Technique: RNA Bind-n-Seq
Molecule type: RNA
Medium: in vitro
Tested at: 365 nM
Setting: natural RNA segment, single round, ends assumed
Reference: no-protein control
Direction: higher = stronger binding
Constant ends, left off below: GGGAGUUCUACAGUCCGACGAUC … UGGAAUUCUCGGGUGCCAA
Construct (chain): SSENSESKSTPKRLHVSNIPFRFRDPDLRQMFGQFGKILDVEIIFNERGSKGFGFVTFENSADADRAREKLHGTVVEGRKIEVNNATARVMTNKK
Oligonucleotide | RBNS enrichment (R)
GACUGGCCAUUAUGCAUCCCCUUUUCUUUCCAGUGCCCAGUAUGCUGUUUUGAGGUGUCAAAUACAAAUAAAUCUGGGCUUAGGGAAGGAGAGACCUUAUUCCAAAGCAC | 0.414
AGUUUGGUGCUGUUUUAGAGUAUGCCUGCUCCCCAGCCCCCUGCCUGGAACCCUCUGAGCAACUUGCUCUGACCUAUAAUGUCUUAGGUGCAACACGGACCCCACCAGAG | 0.668
UGUUUCCAUCAUAUUGCAGUGUAUGUGGGAUUUUCUGUAAAAUGGGUGUAAUUUUUCCCUUAAAAAGGUGUGUGACAACAAGAGAAGUUGCCUGCAUGCCGGUUUAAAUU | 0.408
UGUCUGUUAGUAGUGCUGUAGAUUAAGUCUUUCCAAAGCACCUAGGCAGUGCACCUAUUCUGUAGUUGCAGCUAUUGCCUGAAUGUACCUUAGCUGACAAAUUAUUGAUA | 0.658
ACAGGCUUUCAUUCUAUCUUAUUAACAUAGAGUCUUAUGGAACAAUUUGCCAUGAGUAUAGUUGAAAUCACCAUAGCAAACUCAGGGUAAGUGUGGGCUUUUGUUUCUUA | 0.509
ACCUCUCUAUACUGGAUACUGUAACUAUGAGAAUAAAAUAUAGAAGUGACAGACGUCUACAGCAUUCCAGCUAUGAUCAUGUUGAUUCUGAAAUCAUGUAAAUUAAGAUU | 0.449
GAAAGCUAAAAUGGUGGUCUUCUCCACCAGCCCCUCACAGGCUUGGGGGUUUUCAAUGUGAAACACAUGCCAGUUUUUAAAAUGCUGCUUUGUCCAGGUGAGAACAUCCA | 0.317
ACAGUCGGUGGCCUUGUACCUGGGGGAGGUGGCUUAGGGCUUCUACCUCUGGGGGUAGAGGGAAGACCUAAUUCACAGGUCCUGGGAAAUUUGCUCAAUAAAAGUGGCCU | 0.72
UCGCCUGCUUUGUGCCAGGCUGGUCUGUGUCCCCCUGAGCCUCAUGGCCUACGGUGAUGCCUGUGGUGAUGCCAGGUUGUCCGCUCACAUGAGUCCCAUCUGUAAAUUCU | 0.286
GUCUUAAAACAAUACAUGUAUUUAAAAUAAUGCAGUCAUAACCUAAUUAAUGGAUCAUCAGCUUGACCUCUGUAAAGUGGCAUCUUAAAACUUUUACAGAUUUUUGCACA | 1.11
UUAGUGCUCUCUCUGCCUGGAUCCCGGCAGAAGCUAUGAAAGGGAAUAAAGAGAAAAGAAGUACCCAGGUCGUGGUGUCUUUGCGCUCUGUCUUUAGGACCGGGGAGAGA | 0.743
UGAUCAUAUAUAUGUGUGUGUGUAUGUAUAUGUAUGUGUGUGUGUGUAUAUAUAUAUAUAUAUAUAUAUAUAGCCACACAUGAUCAUACUUAUAUAUGAUGUUUCCAUAU | 1.91

Set 3
Target: Sal-like protein 4, full length isoform B (SALL4, Homo sapiens, UniProt Q9UJQ4-2, residues 1-616)
Technique: universal PBM
Molecule type: double-stranded DNA, one strand shown
Medium: in vitro
Tested at: not given
Setting: 8-mer, flanks averaged, mean of replicates
Direction: higher = stronger binding
Construct (chain): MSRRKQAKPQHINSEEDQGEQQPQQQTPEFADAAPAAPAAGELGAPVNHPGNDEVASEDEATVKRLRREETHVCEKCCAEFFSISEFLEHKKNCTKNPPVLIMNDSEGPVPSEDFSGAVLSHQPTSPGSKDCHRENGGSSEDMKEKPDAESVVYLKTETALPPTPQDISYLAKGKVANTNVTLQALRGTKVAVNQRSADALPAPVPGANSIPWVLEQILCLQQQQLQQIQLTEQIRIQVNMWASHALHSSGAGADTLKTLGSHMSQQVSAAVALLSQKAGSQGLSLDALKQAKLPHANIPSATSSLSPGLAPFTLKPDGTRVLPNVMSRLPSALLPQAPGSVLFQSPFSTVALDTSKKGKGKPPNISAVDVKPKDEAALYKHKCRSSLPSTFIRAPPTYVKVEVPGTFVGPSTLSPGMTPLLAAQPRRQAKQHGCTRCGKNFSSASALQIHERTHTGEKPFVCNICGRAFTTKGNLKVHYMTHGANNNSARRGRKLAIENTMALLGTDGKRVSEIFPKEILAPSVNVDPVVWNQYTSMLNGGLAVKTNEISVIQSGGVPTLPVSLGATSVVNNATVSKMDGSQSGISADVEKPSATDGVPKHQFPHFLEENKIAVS
Oligonucleotide | E-score
ATATGTCA | 0.295
CGACCGAC | -0.209
CCGTAAGG | -0.218
AGACACCC | -0.219
ACAGCTAC | 0.0456
GGCGAAAA | 0.0599
AAAGTTGT | 0.23
ATGAGGTC | -0.158
ATTCGGAG | -0.0958
AATACTGC | 0.111
CTGGGTGA | -0.194
AAAAGGTT | 0.025
CACGTAAC | -0.0943
GCTAATAC | 0.11
GAGATAGC | -0.159
AGAAAATG | 0.126
CTCCTCTA | -0.04
AGCGCGCA | -0.107
TTAACCAA | 0.124
GCTACCCA | -0.23
CGGTATAA | 0.155
CGAATGAC | 0.12
TAATCCTA | 0.16
AAGTCTTA | 0.0322
ATGGGAGA | 0.0748

Set 4
Target: ABI1, truncated, D143A, DHFR fusion (Arabidopsis thaliana, UniProt P49597)
Technique: DHFR PCA, dose-response
Medium: yeast
Setting: Hill fit, not affinity
Together with: (+)-ABA, dose series
Direction: lower = more sensitive
Starting sequence: PYL1, truncated, DHFR fusion (Arabidopsis thaliana, UniProt Q8VZS8); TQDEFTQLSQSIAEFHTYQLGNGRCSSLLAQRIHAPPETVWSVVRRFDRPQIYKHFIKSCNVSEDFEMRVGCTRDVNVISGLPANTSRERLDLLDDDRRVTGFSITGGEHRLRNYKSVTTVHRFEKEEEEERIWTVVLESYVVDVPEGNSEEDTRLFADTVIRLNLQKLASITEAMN
Variant | ABA EC50
R99F | 3.14 µM
W41G | 468 µM
R99Y | 2.66 µM
N85L | 9.62 µM
Q2Y | 36.9 µM
H122K | 2070 µM
V143G | 1180 µM
K126G | 2.13 µM

Set 5
Target: UBE2E2 UBC core domain (UniProt Q96LR5)
Chain of UniProt Q96LR5 (whole entry, looked up): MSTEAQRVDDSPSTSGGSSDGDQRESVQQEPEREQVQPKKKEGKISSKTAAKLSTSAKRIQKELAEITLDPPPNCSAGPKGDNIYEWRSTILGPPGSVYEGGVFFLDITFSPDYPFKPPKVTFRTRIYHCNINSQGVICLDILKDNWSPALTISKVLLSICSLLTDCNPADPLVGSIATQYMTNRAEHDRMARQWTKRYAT
Technique: yeast two-hybrid
Medium: yeast
Setting: mostly zero background
Reference: not given
Direction: higher = stronger interaction
B1: DTX4 RING domain (UniProt Q9Y2E6); chain QKVRHPPDEDCTICMERLTAPSGYKGPQPTVKPDLVGKLSRCGHVYHIYCLVAMYNNGNKDGSLQCPTCKTIYGVKTGTQ
B2: RNF111 RING domain (UniProt Q6ZNA4); chain EGTEEDTEEKCTICLSILEEGEDVRRLPCMHLFHQVCVDQWLITNKKCPICRVDIEAQLPSE
B3: TRIM40 RING domain (UniProt Q6P9F5); chain LQKDNQEEGVCPICQESLKEAVSTNCGHLFCRVCLTQHVEKASASGVFCCPLCRKPCSEEVLG
B4: TRIM5 RING domain (UniProt Q9C035); chain ILVNVKEEVTCPICLELLTQPLSLDCGHSFCQACLTANHKKSMLDKGESSCPVCRISYQPENIRP
B5: TRIM4 RING domain (UniProt Q9C037); chain EAEDIQEELTCPICLDYFQDPVSIECGHNFCRGCLHRNWAPGGGPFPCPECRHPSAPAALRP
B6: TRIM13 RING domain (UniProt O60858); chain MELLEEDLTCPICCSLFDDPRVLPCSHNFCKKCLEGILEGSVRNSLWRPAPFKCPTCRKETSATGINS
B7: TRIML1 RING domain (UniProt Q8N9V2); chain LMENLREELTCFICLDYFSSPVTTECGHSFCLVCLLRSWEEHNTPLSCPECWRTLEGPHFQS
B8: TRAF5 RING domain (UniProt O00463); chain FVERLEERYKCAFCHSVLHNPHQTGCGHRFCQHCILSLRELNTVPICPVDKEVIKSQEVFK
B9: NEURL1 RING domain (UniProt O76050); chain VTPGLGQWSDECTICYEHAVDTVIYTCGHMCLCYACGLRLKKALHACCPICRRPIKDIIKT
B10: SH3RF2 RING domain (UniProt Q8TEC5); chain DDLTLLDLLECPVCFEKLDVTAKVLPCQHTFCKPCLQRVFKAHKELRCPECRTPVFSNIEAL
Sequence | lacZ reporter activity
ASLPTSEEDLCPICYAHPISAVFQPCGHKSCKACINQHLMNNKDCFFCKTTIVSVEDWE (RNF123 RING domain (UniProt Q5XPI4)) | 0
PAELEVQASECVVCLEREAQMIFLNCGHVCCCQQCCQPLRTCPLCRQDIAQRLRIY (LRSAM1 RING domain (UniProt Q6UWE0)) | 0
B1 (DTX4 RING domain) | 0
GAAPGPEAAECLVCSELALLVLFSPCQHRTVCEECARRMKKCIRCQVVVSKKLRPD (MIB2 RING domain (UniProt Q96AX9)) | 0
B2 (RNF111 RING domain) | 0
FQGDVDEDLICPICSGVLEEPVQAPHCEHAFCNACITQWFSQQQTCPVDRSVVTVAHLRP (RNF41 RING domain (UniProt Q9H4P4)) | 0
B3 (TRIM40 RING domain) | 0
B4 (TRIM5 RING domain) | 0
B5 (TRIM4 RING domain) | 0
MPIRALCTICSDFFDHSRDVAAIHCGHTFHLQCLIQWFETAPSRTCPQCRIQVGKRTIIN (TRAIP RING domain (UniProt Q9BWF2)) | 0
B6 (TRIM13 RING domain) | 0
B7 (TRIML1 RING domain) | 0
B8 (TRAF5 RING domain) | 0
B9 (NEURL1 RING domain) | 0
B10 (SH3RF2 RING domain) | 0

Set 6
Target: Histone acetyltransferase KAT6A, both winged helices, GST fusion (KAT6A, Homo sapiens, UniProt Q92794, residues 1-181)
Technique: protein binding microarray
Molecule type: double-stranded DNA, one strand shown
Medium: in vitro
Tested at: not given
Setting: 8-mer, flanks averaged, mean of 2 arrays, mostly near background
Reference: not given
Direction: higher = stronger binding
Residues (chain): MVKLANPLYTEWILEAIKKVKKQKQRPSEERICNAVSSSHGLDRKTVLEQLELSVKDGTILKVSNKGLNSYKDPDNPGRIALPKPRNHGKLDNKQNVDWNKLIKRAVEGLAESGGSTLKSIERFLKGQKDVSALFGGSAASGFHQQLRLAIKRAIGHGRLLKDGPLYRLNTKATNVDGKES
Oligonucleotide | E-score
CTACCCCA | -0.187
AGCTTATC | -0.0107
GCTCTTAA | -0.0678
ACTAGCTC | -0.0442
CAGTGGTC | -0.0538
ACCGACAG | 0.0776
CTAACCCC | -0.144
AGCACTAC | -0.0911
ACTATGCA | -0.169
ACAAAGGT | -0.134
AAATTCCG | 0.0993
GAATTCTC | 0.0264
CATATGGA | -0.118
CCGCTGTA | 0.163
AACGAATA | -0.0289
CCGAGTAC | 0.137
GCAATGCC | 0.0505
AGCTCACT | -0.159
GCGGTACA | 0.246
AGCAACAA | -0.103
ACGCATAC | 0.222
ATAGGAAA | -0.0747
AGAGGACA | -0.142
AGTCTGCC | -0.106
TCGTCCAA | 0.125

For quick reference, copied from above (set 6):
Oligonucleotide | E-score
AGAGGACA | -0.142
AGTCTGCC | -0.106
CATATGGA | -0.118
ATAGGAAA | -0.0747
AACGAATA | -0.0289
ACTAGCTC | -0.0442
GAATTCTC | 0.0264
AGCACTAC | -0.0911
GCAATGCC | 0.0505
